# Published values gathered from unrelated publications.
# ± marks the error that the study gave.
Compound,assay,test system,conditions,how to read,half-life [h]
C=CC(=O)N1CCC[C@@H](n2c(=O)n(-c3ccc(Oc4ccccc4)cc3)c3c(N)nccc32)C1,,"human, fasted, plasma",oral,,~2
CCN1CCN(Cc2ccc(Nc3ncc(F)c(-c4cc(F)c5nc(C)n(C(C)C)c5c4)n3)nc2)CC1,,"human patients, plasma","oral, 150 mg, single dose, geometric mean",,17.5
O=C(c1nc2n(n1)[C@H](c1ccccc1)C[C@@H]2F)C1CC1,,"human, plasma","oral, 75 mg, single dose, high-fat meal, geometric mean",,13.3
O=C(/C=C/c1cccc(S(=O)(=O)Nc2ccccc2)c1)NO[C@@H]1O[C@H](C(=O)O)[C@@H](O)[C@H](O)[C@H]1O,,"human moderate liver dysfunction, plasma","intravenous, 400 mg/m^2, 30 min infusion, cycle 1 day -7, together with: belinostat 400 mg/m^2 iv",,3.97
CC(C)[C@H](N)C(=O)NCCCS(=O)(=O)O,,"human, both sexes, plasma","oral, 172 mg capsule",,0.87 ± 0.2
NS(=O)(=O)OC[C@@H]1C[C@@H](n2ccc3c(N[C@H]4CCc5ccccc54)ncnc32)C[C@@H]1O,,human,"iv, 8 mg/m^2 single dose, day 8, mean, together with: fluconazole",,11.7
C=CC(=O)N1CCC(CNc2ncnc(N)c2-c2ccc(Oc3ccccc3)cc2)CC1,,"human, plasma","25 to 200 mg once daily, multiple dose",,1.6 to 3.6
C[C@@H]1CCC[C@H](n2cnc(-c3cc(Cl)ccc3-n3cc(Cl)nn3)cc2=O)c2cc(ccn2)-c2c(cnn2C(F)F)NC1=O,,human,"500 mg once daily, day 14",,13.5
O=C(NC[C@H](O)CO)c1ccncc1Nc1ccc(I)cc1F,,human,"oral, 60 mg, single dose alone",,5.08
CCCCC1(CCCC)CN(c2ccccc2)c2cc(SC)c(OCC(=O)N[C@@H](C(=O)NCC(=O)O)c3ccccc3)cc2S(=O)(=O)C1,LC-MS/MS,"human, plasma","oral, 15 mg, single dose, fasted",,9.9
CNC(=O)c1c(C)oc2cc(Oc3ncnc4cc(OC)c(OC)cc34)ccc12,,"human, plasma","oral, 5 mg, fed, high-fat meal",,32.1
COc1cc(C(=O)NC2CCN(C)CC2)c(F)cc1Nc1ncc(C(F)(F)F)c(Oc2cccc3c2C(=O)N(C)C3)n1,,"human patients, plasma","oral, 200 mg once daily, steady state",,20.3
O=C(/C=C/c1cccc(S(=O)(=O)Nc2ccccc2)c1)NO,,"human mild liver dysfunction, plasma","intravenous, 400 mg/m^2, 30 min infusion, cycle 1 day -7",,2.12
CO[C@H]1C[C@@H]2CC[C@@H](C)[C@@](O)(O2)C(=O)C(=O)N2CCCC[C@H]2C(=O)O[C@H]([C@H](C)C[C@@H]2CC[C@@H](OCCO)[C@H](OC)C2)CC(=O)[C@H](C)/C=C(\C)[C@@H](O)[C@@H](OC)C(=O)[C@H](C)C[C@H](C)/C=C/C=C/C=C/1C,,"healthy adult human, whole blood","0.75 mg single dose, harmonic mean, together with: ritonavir-containing 3D regimen",,118
COC(=O)[C@H](c1ccccc1Cl)N1CCC(S)/C(=C\C(=O)O)C1 (stereo partly shown),,"human patients, CYP3A4 wt/wt, plasma","75 mg clopidogrel daily, day 7, median",,0.52
CCS(=O)(=O)N1CC(CC#N)(n2cc(-c3ncnc4[nH]ccc34)cn2)C1,,"healthy Chinese human subjects, plasma","oral, 10 mg, single dose, mean",,7.23
Cc1ccc(NC(=O)c2ccc(CN3CCN(C)CC3)cc2)cc1Nc1nccc(-c2cncc(-c3oncc3C)c2)n1,,"older healthy human adults, plasma","oral, 12.5 mg single dose, fed, mean",,25
CCCCOC(=O)N1CCN(C(=O)[C@H](CP(=O)(O)O)NC(=O)c2cc(N3CC[C@H](OC)C3)nc(-c3ccccc3)n2)CC1,,"healthy human, plasma","subcutaneous, 4 mg, placebo i.v.",geometric mean,2.5
CN(C)C(=O)c1cc2cnc(Nc3ccc(N4CCNCC4)cn3)nc2n1C1CCCC1,,"human, mild renal impairment, plasma","oral, 400 mg, geometric mean",,40.9
O=C(COc1ccc(Cl)cc1)NC12CC(c3nnc([C@H]4C[C@@H](OC(F)(F)F)C4)o3)(C1)C2,,"healthy humans, plasma","oral, 15 to 800 mg single dose, fasted, mean across doses",,31 to 45
CCN(CC)CCNC(=O)c1c(C)[nH]c(/C=C2\C(=O)Nc3ccc(F)cc32)c1C,,"human, cancer patients on efavirenz, plasma","oral, 50 mg/day",,71.1 ± 33.5
C=C(C)[C@@H]1CC[C@]2(NCCN3CCS(=O)(=O)CC3)CC[C@]3(C)[C@H](CC[C@@H]4[C@@]5(C)CC=C(C6=CC[C@@](CF)(C(=O)O)CC6)C(C)(C)[C@@H]5CC[C@]43C)[C@@H]12,,healthy human volunteers,"oral, 200 mg, tablet, moderate-fat meal, geometric mean",,26.2
CC(=O)O[C@H]1C(=O)[C@@]2(C)[C@H]([C@H](OC(=O)c3ccccc3)[C@]3(O)C[C@H](OC(=O)[C@H](O)[C@@H](NC(=O)c4ccccc4)c4ccccc4)C(C)=C1C3(C)C)[C@]1(OC(C)=O)CO[C@@H]1C[C@@H]2O,non-compartmental,"human patients, plasma","intravenous, 200 mg/m^2, together with: lenvatinib 6 mg twice daily",,6.77 ± 0.42
CN[C@@H]1COc2c(S(=O)(=O)NC(=O)Nc3c4c(cc5c3CCC5)CCC4)cnn2C1,,human,"oral, 600 mg, high-fat meal, mean",,4.2
CCOc1ccc(Cc2cc([C@@H]3S[C@H](CO)[C@@H](O)[C@H](O)[C@H]3O)c(OC)cc2C)cc1,,"human, plasma","oral, 10 mg/day, day 1, multiple dose before breakfast",,9.15 ± 0.746
Cc1cccc(C)c1N(CC(=O)Nc1ccc(-c2ncon2)cc1)C(=O)C1CCS(=O)(=O)CC1,,"human male, plasma","oral, 400 mg single dose, geometric mean, alone",,7.4
N#C[C@@H]1C[C@@H]2C[C@@H]2N1C(=O)[C@@H](N)C12CC3CC(CC(O)(C3)C1)C2,,"healthy human subjects, plasma","oral, 10 mg, day 10, mean, together with: diltiazem extended-release 360 mg",,3.3
C[C@H](N)C(=O)N1C[C@H](CCCB(O)O)[C@](N)(C(=O)O)C1,,"human, plasma","oral, 50 mg twice daily, cycle 1 day 15",,5.7 ± 1.1
N#Cc1ccc(COc2cccc(C3CCN(Cc4nc5ccc(C(=O)O)cc5n4C[C@@H]4CCO4)CC3)n2)c(F)c1,,"human, plasma",oral,,4.3 to 6.1
O=CC[C@@H](O)[C@H](O)[C@H](O)CO,HPLC-fluorescence,"human patients, plasma","oral, 60 mg/kg/day, cycle 1",,5.2 ± 1.6
CS(=O)(=O)n1cc2c(n1)CN([C@H]1CO[C@H](c3cc(F)ccc3F)[C@@H](N)C1)C2,,"healthy male human, plasma","oral, 400 mg single, fasted, geometric mean",,42.5
O=C(c1ccc(OCCN2CCCCC2)cc1)c1c(-c2ccc(O)cc2)sc2cc(O)ccc12,,"healthy humans, plasma","oral, 60 mg, together with: water",,24.9
CCCC[C@H](NC(C)=O)C(=O)N[C@H]1CCC(=O)NC[C@@H](C(=O)N[C@@H](Cc2c[nH]c3ccccc23)C(N)=O)NC(=O)[C@H](CCCNC(=N)N)NC(=O)[C@@H](Cc2ccccc2)NC(=O)[C@H](Cc2c[nH]cn2)NC1=O,,"healthy human, both sexes, plasma","subcutaneous, 1.0 mg once daily, day 1, median",,3.5
NC(=O)N1CCC(CC(=O)N2CCC([C@H]3c4ncc(Br)cc4CCc4cc(Cl)cc(Br)c43)CC2)CC1,,"human, plasma","oral, 100 mg twice daily, cycle 2 day 15, multiple dose, together with: gemcitabine 1000 mg/m2",,3.79
C/C=C1\NC(=O)[C@H]2CSSCC/C=C/[C@H](CC(=O)N[C@H](C(C)C)C(=O)N2)OC(=O)[C@H](C(C)C)NC1=O,,"human, plasma","i.v., 8 mg/m^2",,13.4 ± 4.5
CN(Cc1nc2c(N)nc(N)nc2[nH]c1=O)c1ccc(C(=O)N[C@@H](CCC(=O)O)C(=O)O)cc1,,"human, plasma","oral, 20 mg methotrexate, day 1, alone, arithmetic mean",,12
COCCCCn1c(C(=O)N(CC(C)C)[C@@H]2CNC[C@H](C(=O)N3CCOCC3)C2)nc2ccccc21,,"non-elderly human, plasma","oral, 80 mg once daily, day 1",,10.3
CCOc1ccc(Cc2cc([C@]34OC[C@](CO)(O3)[C@@H](O)[C@H](O)[C@H]4O)ccc2Cl)cc1,,"human, type 2 diabetes, mild renal impairment, plasma","oral, 15 mg",,25.9 ± 14
CCOC(=O)C1=C[C@@H](OC(CC)CC)[C@H](NC(C)=O)[C@@H](N)C1,,"healthy Indian human, plasma","oral, 75 mg single, test capsule fed",,4.82 ± 2.19
CCOc1cc([C@@H](CS(C)(=O)=O)N2C(=O)c3cccc(NC(C)=O)c3C2=O)ccc1O[C@@H]1O[C@H](C(=O)O)[C@@H](O)[C@H](O)[C@H]1O,,"healthy human controls, plasma","oral, 30 mg apremilast, matched to moderate impairment",,15.5
C=CC(=O)N1CCC([C@@H]2CCNc3c(C(N)=O)c(-c4ccc(Oc5ccccc5)cc4)nn32)CC1,,human,"oral, 480 mg single dose, mean",,11
COc1cc2ncnc(Nc3ccc(F)c(Cl)c3)c2cc1OCCCN1CCOCC1,,"human, plasma","oral, 250 mg, together with: vorinostat 200 mg",,20.2 ± 7.3
Cc1[nH]c(/C=C2\C(=O)Nc3ccccc32)c(C)c1CCC(=O)O,,human patients,"oral, 500 mg/m^2 twice daily, after meal, dose 55",,2.96 ± 0.718
CC[C@@H]1C(=O)N(C)c2cnc(Nc3ccc(C(=O)N[C@H]4CC[C@H](N5CCN(CC6CC6)CC5)CC4)cc3OC)nc2N1C(C)C,,"human, plasma","intravenous infusion, 100 mg over 2 h, first infusion, geometric mean",,178
CN1C(=O)[C@@H](NC(=O)c2nnc(Cc3ccccc3)[nH]2)COc2ccccc21,,"human male, plasma","oral, 60 mg twice daily, day 14",,2.19
COC(=O)c1ccc2c(c1)NC(=O)/C2=C(\Nc1ccc(N(C)C(=O)CN2CCN(C)CC2)cc1)c1ccccc1,,"healthy human controls matched to Child-Pugh B, plasma","oral, 100 mg single dose, geometric mean",,32.1
Cc1cccc(C)c1OCC(=O)N[C@@H](Cc1ccccc1)[C@@H](O)C[C@H](Cc1ccccc1)NC(=O)[C@H](C(C)C)N1CCCNC1=O,,"human, HIV+/HCV+ with cirrhosis, plasma","oral, total drug, steady state, median, together with: lopinavir/ritonavir twice daily",,7.1
Cl.NCCc1c[nH]c(=S)n1[C@H]1COc2c(F)cc(F)cc2C1,mean,"human, male, plasma","oral, 200 mg, fed, high-fat high-calorie meal",,19.6
N#CCNC(=O)c1ccc(-c2ccnc(Nc3ccc(N4CCOCC4=O)cc3)n2)cc1,,"human, plasma","oral, 100 mg momelotinib once daily, cycle 1 day 15, median, together with: trametinib 1.0 mg once daily",,8.1
CC(C)(Sc1ccncc1-c1ccc(C#N)c2ccccc12)C(=O)O,,human,"oral, 10 mg, together with: febuxostat 40 mg",,8.26
CO[C@H]1C[C@@H]2CC[C@@H](C)[C@@](O)(O2)C(=O)C(=O)N2CCCC[C@H]2C(=O)O[C@H]([C@H](C)C[C@@H]2CC[C@@H](O)[C@H](OC)C2)CC(=O)[C@H](C)/C=C(\C)[C@@H](O)[C@@H](OC)C(=O)[C@H](C)C[C@H](C)/C=C/C=C/C=C/1C,,"human, whole blood","oral, 30 mg, without grapefruit juice",,30
O=C(c1cccnc1-c1ccncc1)N1CCC(O)(Cc2ccccc2)CC1,,"healthy human, plasma","oral, 300 mg once daily, day 1, arithmetic mean",,4.44

# For quick reference, copied from above:
Compound,assay,test system,conditions,how to read,half-life [h]
N#C[C@@H]1C[C@@H]2C[C@@H]2N1C(=O)[C@@H](N)C12CC3CC(CC(O)(C3)C1)C2,,"healthy human subjects, plasma","oral, 10 mg, day 10, mean, together with: diltiazem extended-release 360 mg",,3.3
C[C@H](N)C(=O)N1C[C@H](CCCB(O)O)[C@](N)(C(=O)O)C1,,"human, plasma","oral, 50 mg twice daily, cycle 1 day 15",,5.7 ± 1.1
N#Cc1ccc(COc2cccc(C3CCN(Cc4nc5ccc(C(=O)O)cc5n4C[C@@H]4CCO4)CC3)n2)c(F)c1,,"human, plasma",oral,,4.3 to 6.1
O=CC[C@@H](O)[C@H](O)[C@H](O)CO,HPLC-fluorescence,"human patients, plasma","oral, 60 mg/kg/day, cycle 1",,5.2 ± 1.6
CS(=O)(=O)n1cc2c(n1)CN([C@H]1CO[C@H](c3cc(F)ccc3F)[C@@H](N)C1)C2,,"healthy male human, plasma","oral, 400 mg single, fasted, geometric mean",,42.5
O=C(c1ccc(OCCN2CCCCC2)cc1)c1c(-c2ccc(O)cc2)sc2cc(O)ccc12,,"healthy humans, plasma","oral, 60 mg, together with: water",,24.9
CCCC[C@H](NC(C)=O)C(=O)N[C@H]1CCC(=O)NC[C@@H](C(=O)N[C@@H](Cc2c[nH]c3ccccc23)C(N)=O)NC(=O)[C@H](CCCNC(=N)N)NC(=O)[C@@H](Cc2ccccc2)NC(=O)[C@H](Cc2c[nH]cn2)NC1=O,,"healthy human, both sexes, plasma","subcutaneous, 1.0 mg once daily, day 1, median",,3.5
